Results collected from several papers.
Each numbered part is a random draw from the data of one study; scales do not carry over between parts.

Block 1
Target: RING finger protein unkempt homolog, zinc fingers 1-6, GST-SBP tag (UNK, Homo sapiens, UniProt Q9C0B0, residues 30-357)
Sequence of UniProt Q9C0B0 (30-357, looked up): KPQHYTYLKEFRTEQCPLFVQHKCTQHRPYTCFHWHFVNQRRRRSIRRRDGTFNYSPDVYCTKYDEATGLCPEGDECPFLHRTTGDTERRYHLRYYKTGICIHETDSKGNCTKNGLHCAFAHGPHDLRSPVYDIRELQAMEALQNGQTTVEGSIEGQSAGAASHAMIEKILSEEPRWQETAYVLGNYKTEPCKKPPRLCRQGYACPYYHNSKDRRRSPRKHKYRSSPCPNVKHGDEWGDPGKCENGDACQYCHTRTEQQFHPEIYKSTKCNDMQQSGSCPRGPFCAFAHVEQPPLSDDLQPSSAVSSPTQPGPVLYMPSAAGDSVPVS
Method: RNA Bind-n-Seq
Molecule type: RNA
Matrix: in vitro
Tested at: not given
Notes: RNA with constant flanks, human-mouse chimeric sites, ends assumed
Baseline: input RNA pool
Reading: higher = stronger binding
Constant ends, left off below: GGGAGUUCUACAGUCCGACGAUC … CAACAGAGGAUUGAGCAUCA
Sequence	bound/input enrichment [ratio]
CAGUCCCCGUGUCCCAGGGGACAAUGUUGUGAACAAAAACUCAAAGCGGCCCUUUCUUUGUAGUUCUUGAUUCUCGAAAUGUGCUAUUAUUGUUUGUCUUUUUUUUUUUUUUUUUAAAGA	1.78
GCUGAAAAUGAAGAAGAGGCAGCUGAUGUCUGGUACAACUUGGGACACAUAGCUGUGGGAAUAGGAGAUACAAACUUGGCCCACCAAUGCUUCAGGCUGGCCCUGGUCCACAACAACCAC	0.274
CUGGCACUCUAUCAGAUAUAUUAAUUUUUUAAUGUAGAUAAAAUUUCAAAAAUGAAUGGCUACUUUACACGUUUAACUAGGGUUUUACUAUAUAUGUGUACAUAUGUAUAUAUAUAUAUA	11.7
AAAGAGAAACUAAAGCAAACUGAUUGAAAGAGGAUUGGCAAAGAGAAUUUCAUAGAGAAACUAGGAUUUUAUUAGCAACAUGAGUUAUAUUCCAGAGCGUCUCAGAAACCCCAGCCAAAC	6.67
AAGCAACGCAAACUUGAAACAAUUCGUUAUCUUGCAGAGCUUCGGUGCACUUGCUUGGCGAUAGCAUUGGGGUUUUAUAGGUUCUGGAAGGAGAACUGACGAUGAUGCUGCCGCUGCUGC	0.443
AGGAGGAGGUUAAAGGGUGAGAGUGGGGUGGAAGACUGUGUCAUGGCCCUAGAAACCCUGUUCAGUGUCCUGCUUUCUCUGUGCAGACUUAUGGCUCCUUACACGCCCUUUCUGACUGAG	0.0466
GAUCCACAGUGGUCUGAGGAGCAACUCAUUGCUGCAAAAUUCUGUUUUGCUGGACUUCUUAUAGGCCAGACUGAAGUGGACAUCAUGAGUCAUGCCACACAAGCUAUUUUUGAAAUUCUG	0.201
CCUCUGCCCCGCUCUGCAGCCUGGGGACACUGGGCUGGGACCAGAAUCUUAUUUUUUUUUAAAACUCUCAGUGUAACUGUAUCCCGUGACAUUUCAUUUUUUUUAAAUAGUGUAUUUUUU	6.95
CCAAUCGUGGAGCAGUACUUGAAGACAAAGAAAAAUUCUAGUCAUUUAAUCAUCAAGUACAUUAGCUGCCGCCUGCUGACACUCAUCAUUAUACUGUUAGCGUGUAUCUACCUGGGCUAU	0.467
CAGACUGUGUCAUACUUUGUAGCAAGACACAUCAGACUUACAGAGCACCUGGCCACAUUCUAGGUUUGUGUUAUUUCUCAGCUAUGGAUAUGAUCAAAUGAGAACACUGCUUAACUAAUG	0.158
UUAUCCAAGACUCAACGAAAGACUCCAACGGUUAUUCAUAAACAUUAUCAAAUUCAUCGCAUUAGACAUUUUUAUAUGAGAAAAGUCAAAUUUACUCAACAGAAUUACCAUGACAGACUG	5.25

Block 2
Target: Sal-like protein 4, full length isoform A (SALL4, Homo sapiens, UniProt Q9UJQ4, residues 1-1053)
Sequence of UniProt Q9UJQ4 (whole entry, looked up): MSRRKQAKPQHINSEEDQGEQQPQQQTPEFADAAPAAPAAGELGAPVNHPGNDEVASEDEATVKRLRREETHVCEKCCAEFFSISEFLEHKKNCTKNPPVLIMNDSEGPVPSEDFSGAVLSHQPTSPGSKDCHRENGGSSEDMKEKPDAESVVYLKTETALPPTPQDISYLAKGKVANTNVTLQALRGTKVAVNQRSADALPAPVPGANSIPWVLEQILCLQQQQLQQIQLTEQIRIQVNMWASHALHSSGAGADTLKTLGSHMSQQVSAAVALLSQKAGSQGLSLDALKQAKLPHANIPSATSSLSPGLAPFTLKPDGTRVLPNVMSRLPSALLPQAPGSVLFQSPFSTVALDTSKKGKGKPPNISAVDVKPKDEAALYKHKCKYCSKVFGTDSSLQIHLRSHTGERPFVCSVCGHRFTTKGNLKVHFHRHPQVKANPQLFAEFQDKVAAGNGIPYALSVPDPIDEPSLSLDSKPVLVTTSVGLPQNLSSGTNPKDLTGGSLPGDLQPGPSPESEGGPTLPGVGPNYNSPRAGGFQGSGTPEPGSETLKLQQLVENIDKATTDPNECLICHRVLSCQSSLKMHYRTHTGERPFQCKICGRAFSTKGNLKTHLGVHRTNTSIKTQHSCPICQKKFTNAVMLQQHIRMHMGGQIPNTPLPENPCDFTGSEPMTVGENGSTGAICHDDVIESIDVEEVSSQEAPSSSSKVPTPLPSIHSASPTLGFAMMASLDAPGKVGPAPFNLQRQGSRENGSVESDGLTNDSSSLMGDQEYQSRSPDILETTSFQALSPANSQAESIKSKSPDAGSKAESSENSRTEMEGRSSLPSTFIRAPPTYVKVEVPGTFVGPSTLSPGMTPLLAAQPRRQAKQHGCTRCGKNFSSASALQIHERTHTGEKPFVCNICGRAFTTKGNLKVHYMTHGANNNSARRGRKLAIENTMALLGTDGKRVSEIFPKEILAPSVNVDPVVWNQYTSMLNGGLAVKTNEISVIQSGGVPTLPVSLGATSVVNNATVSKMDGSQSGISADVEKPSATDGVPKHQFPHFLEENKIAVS
Method: universal PBM
Molecule type: double-stranded DNA, one strand shown
Matrix: in vitro
Tested at: 600 nM
Notes: 8-mer, flanks averaged, mean of replicates
Reading: higher = stronger binding
Sequence	E-score
AAGTGTGT	0.14
CCTAGTGC	-0.148
AAGGGGGT	-0.181
GGACGAGA	-0.0512
GTGGCTCA	-0.198
CGGGAATA	0.0507
CCATTCCA	-0.121
GCGTCTGA	-0.202
GATATCAA	0.273
CAAGCCTG	-0.0931
AACCCTAA	0.0433
ACACGCGT	-0.0128
ACAACTCG	0.0356
AAAGAGCC	-0.241
CATACTTA	0.268
AAACGACT	0.035
CGGGGCTC	-0.341
GCGATACA	0.0733
AATACAAT	0.309
GTGTACAC	0.0833
ACCGTATC	-0.0352
GTATCTTA	0.307
AATCGCCC	-0.176
AGGACGAA	-0.108

Block 3
Target: Interferon regulatory factor 5, full length, phosphomimetic (IRF5, Homo sapiens, UniProt Q13568-2, residues 1-514, K96S/S451D/S453D/S456D/S462D)
Method: protein-binding microarray
Molecule type: double-stranded DNA, one strand shown
Matrix: in vitro
Tested at: 250 nM
Notes: 60-bp whole probe
With: salmon DNA 0.4 mg/ml
Baseline: random background probes
Reading: higher = stronger binding
Constant ends, left off below: GCCTAGCAC … GTCTTGATTCGCTTGACGCTGCTG
Sequence	log fluorescence [z-score]
CTTGGCTTCTCCCACAGGTGGTGCTAG	-0.574
GACGGTATCGGTCTCGAGACGTGCTAG	5.32
TAAGGTTTCGGACTGGGTTAGTGCTAG	3.5
TAAGGACTGCTTCTCCTTTAGTGCTAG	-0.102
TTAGAACTGAGACTGGATCAGTGCTAG	-0.275
TTAGAACTGCTTATCCTTTAGTGCTAG	0.15
TGACCTGCTCCAAACACCTCGTGCTAG	-0.217
TCAGTTTTGCTAAGTCAAACTGTGCTA	1.33
GACGGCTTCCTTTCCCTGACGTGCTAG	0.167
TTAGGCCTGCTACTGCTTTAGTGCTAG	-0.506
TTAGGACTGCTTATCCGTTAGTGCTAG	-0.0253
TCAGGTGTCTTTTGTGGAACTGTGCTA	0.112
TCAGATATTAAACTGATACTGTGCTAG	0.646
TTAGAACTGGGGACTGTATTAGTGCTA	-0.292
TTAGGTATCCTTTTCCTTTAGTGCTAG	0.582
TTAGGTATCAGTATCGGTTAGTGCTAG	8.23
GACTGTTTCGACTTTCGGGACGTGCTA	8.29
GACGGGATCGGGACTGGGGACGTGCTA	-0.514
GACGGTTTCGATTTCGGGACGTGCTAG	9.15
GACGCTTCCCTTTTCCTGACGTGCTAG	0.186
GACGCTATCGGGACTGGGGACGTGCTA	1.33
TTAGGGATCCTTTTCCTTTAGTGCTAG	0.0183
CAGGTTCTCTTTTATTTTTTGTGCTAG	0.714
TTAGATTTCGGGACTGGAATAGTGCTA	3.07
GGCGGACTGCTACTGCTGACGTGCTAG	-0.501

Block 4
Target: RNA binding protein fox-1 homolog 2, RRM domain, GST-SBP tag (RBFOX2, Homo sapiens, UniProt O43251-10, residues 100-194)
Method: RNA Bind-n-Seq
Molecule type: RNA
Matrix: in vitro
Tested at: 365 nM
Notes: natural RNA segment, single round, ends assumed
Baseline: no-protein control
Reading: higher = stronger binding
Constant ends, left off below: GGGAGUUCUACAGUCCGACGAUC … UGGAAUUCUCGGGUGCCAA
Construct (chain): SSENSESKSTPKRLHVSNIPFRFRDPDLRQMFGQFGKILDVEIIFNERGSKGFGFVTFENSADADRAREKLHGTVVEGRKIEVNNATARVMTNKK
Sequence	RBNS enrichment (R)
UGGAUCAAACAGGACCACCUCCCUCUGCGUCAGCCAUUUAAAAUUGGGGGAGGGAAGAGAUCCAGUGCAAGUGUGGGAAGAAACUGGAAUGACGAUUUUGAUUAGGCCAC	1.72
AAAGCUAUUCUAAAUGGGUUUUUAUUUGUAAGACAUUAUUUACUAGGAAGCUGGUGAUAUUAAUGCUUACUGUUCUAAUCCAGUGGCCAAGGUAUUAAGAAUUUGCAAGU	0.612
CAGCAGGGGACUUGACUGCCCUGGGCGCCCUGCCCCUCCCGCUGCGUGUCCAGGUCCAAAGUGGAGAGCCUGCCUUUGGGUUUAGUUCCCGAAUCAGAAUCCCAUCUCAC	0.333
GGGAGAAUGGGAGGCUUGGCCUUCUUUGUGAGGCAGUGUGAGCAGAAGCUGAUGCCAGCAUGUCACUGGUUUUGAAGGGAUGAGCCCAGACUUGAUGUUUUGGGAUUGUC	3.65
UUCCCUCCCAGCUUCAAGCCGAACACACGCUGUGGCCACCAAGACCUGGGGCGACAGGAGAACCGGUCCUCUCUCUGACGGGGUGGCAUUUGGCCUUGAACAAAACCAAG	0.41
AAAUAAUAAUAGCCGACGUUUAUUGAGCACUUACUAUGUGCCCAACCCUGUUAUGCCUUUCUCAGGCUCAUGAUAAAUGUAUUAGUCUGUUCUCAUGCUGCUAUUAAAGA	0.46
UCUUACUGUUUCUGUUUCACAUAGGGACAUUUAAAUCAAUGUCAAUGUGCGUCCAUGCUUGAGUGAGCAAGCCAGCGUCCUUGUCCUCCUGCAAUGCCUUUGGGAAGCUC	0.386
UAAAACACUUUCAGCCACCCAGAUUAAUUAAAGUGGAGCAGUGGAGCCCCUGGCUGGGAGAUGGCCUCCAGAGGAGCAGCUGCAGGGCAUGUUCUGGGCUUAGCGACAGA	1.57
GAACAUAGUAUCAUGAAUGGAGUAGACAGGGAGGCUGCAGAAGCCAUUUCUCUUUGUAGAUAAAAAGCAUUAUCUAUGAUUGUUGUAUAAUAAAUUGAUUUUUACAUUAA	0.485
CAGAAGUGACUUUGAGACUGUUCCUGCUGACCUUUUGAGAUAGUCACUUAAGGAAGGAUGGCUCUCUCUCAUCUGUCUCUUGUUCCUUAUUGUUGCAGAGCUAGCUCCAC	0.477
UUGUAUAUUUCUAUCUGGUAGUAAUGUGUAUUUACAACAUCUGUCACUGCAGUGUUACCGGAGCUUCCUUCAUUGUGCGCACACGACAAAUCUGAGUUCUUUGGGAAAAA	0.926
CCUGUCUGAGUAAGCCAGGGUGGCAGACGCUGGUCCCAAACCUCACCCAGCAACCAGCCUCUCAUUUUCAGGGCAGGCAGCAGAGACCCGGGUCUCUUGCCUUGAGAUGG	0.311

Block 5
Target: Hepatocyte nuclear factor 3-beta, forkhead domain (FOXA2, Homo sapiens, UniProt Q9Y261, residues 142-269)
Method: protein-binding microarray
Molecule type: double-stranded DNA, one strand shown
Matrix: in vitro
Tested at: not given
Notes: k-mer, scored over probes, only values ≥0.25
Reading: higher = stronger binding
Target sequence (chain): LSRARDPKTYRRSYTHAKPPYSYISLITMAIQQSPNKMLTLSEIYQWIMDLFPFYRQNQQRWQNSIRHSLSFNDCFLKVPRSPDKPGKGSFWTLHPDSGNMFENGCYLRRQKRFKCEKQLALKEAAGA
Sequence	E-score
ATATAGTA	0.345
AATGATAC	0.283
AGTGTAAT	0.268
TAACAATA	0.377
ACATATCG	0.318
CTAATAAC	0.279
AGTAATAA	0.282
AACATAAA	0.29
ATTATGCA	0.284
ATGTTGTG	0.309
CCTGATAC	0.291
AGCAAACA	0.339
GAGTAACA	0.266
GTATACAC	0.277
AACAAATT	0.269
TACTATAA	0.35
GTCAAATA	0.371
TAACATCA	0.281

Excerpt of the above (block 5):
Sequence	E-score
ATGTTGTG	0.309
CCTGATAC	0.291
AGCAAACA	0.339
GAGTAACA	0.266
GTATACAC	0.277
AACAAATT	0.269
